Published values of several laboratories.
Numbers after ± are the reported error.

The unbound fraction of `CCCCCc1cc(O)c2c(c1)OC(C)(C)C1CCC(C)=CC21` (single isomer, unassigned; (-)) is reported as 0.052 ± 0.005 (human kidney microsome incubation mixture).
`COc1cccc(C2(O)CCCCC2CN(C)C)c1.Cc1ccc(-c2cc(C(F)(F)F)nn2-c2ccc(S(N)(=O)=O)cc2)cc1.Cl` (racemic) — result for “subjects with adverse events”: 44.1% (healthy human, fasted; oral, dose not given).
`CC1=C[C@H]2c3c(O)cc(CCc4ccccc4)cc3OC(C)(C)[C@@H]2CC1` gave a concentration of 0.8 nmol/g (male BALB/c mice, brain; intraperitoneal, 40 mg/kg, 1 h).
For `COc1ccc(-n2cc(C(=O)N3C[C@]4(OC(=O)c5ccccc5NC(C)=O)CC[C@H](OC)[C@@]56[C@@H]4C[C@@H]([C@@H]35)[C@@]3(O)C[C@H](OC)[C@H]4C[C@@H]6[C@]3(O)[C@H]4OC)nn2)cc1`, the AUC(0-inf) was 42.9 ng·h/mL (Sprague-Dawley rat, plasma; intravenous, 2 mg/kg).
With `CN(C)CC1CCCCC1(O)c1cccc(O)c1` (centres unmarked) the Papp A→B was 15.2 ×10⁻⁶ cm/s (Caco-2; 50 µM, 3 h, pH 7.4).
`CC[C@H](C)[C@@H]1NC(=O)[C@H](CCCCN)NC(=O)[C@H](CCCCN)NC(=O)[C@H](C)NC(=O)[C@H](C(C)C)NC(=O)[C@H](C)NC(=O)[C@H](CC(C)C)NC(=O)[C@H](CC(C)C)NC(=O)[C@H](C)NC(=O)[C@H](CCCCN)NC(=O)[C@H](CC(C)C)NC(=O)[C@H](CC(N)=O)NC(=O)[C@H](CC(C)C)NC(=O)[C@@H](N)CSSC[C@@H](C(N)=O)NC(=O)[C@H](CC(C)C)NC1=O` has a α-helix content of 28% (circular dichroism; 10 mM ammonium acetate; 100 µM, 20 °C).
For `N[C@]1(c2ccccc2Cl)CCC[C@H](O)C1=O`, the AUC(0-t) was 10100 ± 1310 ng·h/mL (Wistar rat, plasma; oral, 20 mg/kg).
The solubility increase of `CCCCCc1cc(OC(=O)C(NC(=O)CCC(=O)O)C(C)C)c2c(c1)OC(C)(C)C1CCC(C)=CC21` (centres unmarked) is reported as 96 fold (shake-flask; aqueous solution; 24 h, 25 °C; baseline: THC).

Some of these lines once more:
For `N[C@]1(c2ccccc2Cl)CCC[C@H](O)C1=O`, the AUC(0-t) was 10100 ± 1310 ng·h/mL (Wistar rat, plasma; oral, 20 mg/kg).
